Results gathered from unrelated publications.
Each numbered part is a random draw from the data of one study; scales do not carry over between parts.

Series 1
Target: Histone acetyltransferase KAT6A, both winged helices, GST fusion (KAT6A, Homo sapiens, UniProt Q92794, residues 1-181)
Method: protein binding microarray
Molecule type: double-stranded DNA, one strand shown
Sample: in vitro
Concentration: not given
Setting: 8-mer, flanks averaged, mean of 2 arrays, mostly near background
Baseline: not given
Direction: higher = stronger binding
Construct (chain): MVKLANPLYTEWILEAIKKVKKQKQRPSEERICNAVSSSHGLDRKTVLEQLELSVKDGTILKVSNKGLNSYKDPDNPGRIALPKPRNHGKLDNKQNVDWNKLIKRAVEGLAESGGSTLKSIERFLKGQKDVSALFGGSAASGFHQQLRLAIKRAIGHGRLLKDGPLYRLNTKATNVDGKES
Strand | E-score
ACGGAAGG | 0.172
AGTGCCTC | -0.0791
GACCTTGC | -0.103

Series 2
Target: PABPC1L2, full length, GST fusion (mouse, UniProt A0ABA7IW68)
Method: RNAcompete
Molecule type: RNA
Sample: in vitro
Concentration: 20 nM
Setting: 7-mer, probes averaged, single round
Baseline: mean of 7-mers
Direction: higher = stronger binding
Construct (chain): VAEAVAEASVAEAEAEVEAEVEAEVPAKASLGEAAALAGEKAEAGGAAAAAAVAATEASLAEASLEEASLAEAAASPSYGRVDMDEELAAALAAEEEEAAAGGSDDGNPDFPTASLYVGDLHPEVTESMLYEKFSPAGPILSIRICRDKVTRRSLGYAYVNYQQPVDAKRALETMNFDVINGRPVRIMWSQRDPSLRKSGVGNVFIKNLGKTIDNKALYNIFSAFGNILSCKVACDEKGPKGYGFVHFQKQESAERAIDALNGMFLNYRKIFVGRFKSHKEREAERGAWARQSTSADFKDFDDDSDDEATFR
Strand | 7-mer Z-score
CCAGAUG | -0.0663
GGAUAGC | 0.017
ACGUGCG | 0.00798
UAAGGAU | -0.0192
AGCCUGA | -0.168

Series 3
Target: RING finger protein unkempt homolog, zinc fingers 1-6, GST-SBP tag (UNK, Homo sapiens, UniProt Q9C0B0, residues 30-357)
UniProt Q9C0B0, sequence (30-357, looked up): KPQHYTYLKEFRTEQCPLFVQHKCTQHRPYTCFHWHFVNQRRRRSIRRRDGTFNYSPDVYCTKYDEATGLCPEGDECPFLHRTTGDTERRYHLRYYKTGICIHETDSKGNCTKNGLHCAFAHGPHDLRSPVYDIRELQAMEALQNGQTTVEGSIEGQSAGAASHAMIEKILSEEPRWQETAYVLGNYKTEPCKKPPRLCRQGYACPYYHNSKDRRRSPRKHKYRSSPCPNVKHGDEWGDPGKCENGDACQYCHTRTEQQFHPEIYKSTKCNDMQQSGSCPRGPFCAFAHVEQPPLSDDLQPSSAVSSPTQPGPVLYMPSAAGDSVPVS
Method: RNA Bind-n-Seq
Molecule type: RNA
Sample: in vitro
Concentration: not given
Setting: RNA with constant flanks, human-mouse chimeric sites, ends assumed
Baseline: input RNA pool
Direction: higher = stronger binding
Strand | bound/input enrichment [ratio]
GGGAGUUCUACAGUCCGACGAUCUGGCGCCUGCGCUCCCCACUCGUGUUUUUAAGUGUAUAAGAUGUAUAUACAUGUAUUUGUAAUAGAUCUUUUGUUACAUAAUGCUGAAAUGCUACUGGAGAUUAUGAAAAAUGUUUCAAUCAACAGAGGAUUGAGCAUCA | 0.127
GGGAGUUCUACAGUCCGACGAUCCCAAUUGUGGAGCAGUACUUGAAGACAAAGAAAAAUUCUAGUCAUUUAAUCAUCAAGUACAUUAGCUGCCGCCUGCUGACACUCAUCAUUAUACUGUUAGCGUGUAUCUACUUGAGCUAUCAACAGAGGAUUGAGCAUCA | 0.502
GGGAGUUCUACAGUCCGACGAUCGCUGAAAAUGAAGAAGAGGCAGCUGAUGUCUGGUACAACCUGGGGCACAUAGCUGUGGGAAUAGGAGAUACAAAUUUGGCCCACCAAUGCUUCAGGCUGGCCCUGGUCCACAACAACCACCAACAGAGGAUUGAGCAUCA | 0.747

Further values, each from its own experiment
Molecule | target | test | system | conditions | scale | endpoint | value
PhoQ, residues 284 288 289 292 302 303 AANNSF | PhoP, residues 12 14 15 18 19 GQAIL (Escherichia coli, UniProt P23836) | Sort-seq, item: YFP reporter | E. coli | PhoQ-PhoP variant library, added: 10 µM Mg2+ | baseline: high Mg2+ state, higher = stronger signaling | fold induction | 3.94

Repeated from above (series 3):
Strand | bound/input enrichment [ratio]
GGGAGUUCUACAGUCCGACGAUCCCAAUUGUGGAGCAGUACUUGAAGACAAAGAAAAAUUCUAGUCAUUUAAUCAUCAAGUACAUUAGCUGCCGCCUGCUGACACUCAUCAUUAUACUGUUAGCGUGUAUCUACUUGAGCUAUCAACAGAGGAUUGAGCAUCA | 0.502
GGGAGUUCUACAGUCCGACGAUCGCUGAAAAUGAAGAAGAGGCAGCUGAUGUCUGGUACAACCUGGGGCACAUAGCUGUGGGAAUAGGAGAUACAAAUUUGGCCCACCAAUGCUUCAGGCUGGCCCUGGUCCACAACAACCACCAACAGAGGAUUGAGCAUCA | 0.747
